Measurements of several laboratories.
Values joined by “and” are separate records of one study, mostly repeats; a detail may differ. Numbers after ± are the reported error.

`COc1ccccc1-c1ccncc1C(=O)Nc1nnc(OCc2ccc(Cl)cc2)s1` has a colony survival of 21.5% and 0% (PEO1 BRCA2-mutant ovarian cancer; 0.5 µM, with: olaparib 0.125 µM).
For `COC(=O)c1cc(NC2=NC(=O)C(=Cc3ccc(C)cc3)S2)ccc1OC(C)=O`, the metabolite level was -0.02 fold change (MCF7; GC-MS, refers to: L-Tyrosine; 1 µM; reference: DMSO).
`O=C(Nc1ccc(Sc2ccc3c(/C=C/c4ccccn4)n[nH]c3c2)cc1)C1CCCN1` (stereo not drawn) gave a GI50 of 0.61 µM (Ba/F3 TEL-VEGFR2; cell growth, CCK-8).
`CCCCCCCCN(CCC(=O)Nc1ccccc1)C(=O)c1ccc[nH]1` gave a viability of 45 ± 6% (progeroid mouse fibroblasts, Lmna G609G/G609G; MTT; 2 µM, 72 h; reference: vehicle-treated wild type).
Under “fold change in expression”, `Cn1ncc2cc(-c3cncc(Cl)c3N3CCC4(CCNC4=O)CC3)ccc21` is recorded as -3.39 (LS174T; microarray, refers to: MT1E; concentration not given, 24 h, gene set Metallothionein-1E; reference: untreated cells).
Under “cell fraction ANV+/PI+”, `CNC(NN=Cc1ccc([N+](=O)[O-])o1)=[S+][Au-][Cl]` is recorded as 2.7 ± 0.4% (CAKI-1; annexin V/PI flow cytometry; 5 µM, 72 h).
With `O=C(NCc1cc(F)cc(F)c1)[C@@]1(O)CCN(c2ccc3[nH]ccc3c2)C1=O` the maximal inhibition was 52% (CNS PDX-derived tumour cells; colony formation, soft agar clonogenic; concentration not given, 8-10 days).
The Imax of `Fc1ccc(Nc2nc(NC3CCCCC3)c3cc(Br)ccc3n2)cc1F` is reported as -0.1% (transfected HEK293 cells; β-arrestin2 recruitment, negative allosteric modulator, BRET; 30 min pre-incubation, β1AR ECL1/2 chimera, with: isoproterenol 1 µM; reference: isoproterenol alone).
For `CN1CCN(Cc2ccc(C(=O)Nc3ccc4c(/C=C/c5ccccn5)n[nH]c4c3)cc2)CC1`, the GI50 was 0.67 µM (Ba/F3 TEL-VEGFR3; cell growth, CCK-8).
`CCOc1cncc(-c2ccc(NC(=O)C3(c4ccnc(NS(=O)(=O)C5CC5)n4)CCOCC3)nc2)n1` gave an IC50 of 0.998 µM (DMS-273; cell growth or viability, ATP luminescence; 72 h).
The fold regulation of `CCN(CC)CC(=O)Nc1cccc(-n2cc(-c3ccc4ccc(-c5cn(-c6cccc(NC(=O)CN(CC)CC)c6)nn5)cc4c3)nn2)c1` is reported as -1.02 fold (RCC4; PCR array, refers to: TGFA; 5 x IC50, 2 h, normoxia; reference: untreated).
Under “log2 fold change”, `CN1CCCNC(=O)c2cccc(c2)C(=O)NCCCN(C)CCCNc2cccc3c2C(=O)c2cccc(c2C3=O)NCCC1` is recorded as -1.13 (SAS; RNA-Seq, refers to: LRP8 mRNA; 1 µM, 6 h; reference: untreated cells).
For `Cc1ccc(-n2cc(CSc3nc4ccccc4n3Cc3cn(-c4ccc(C)cc4)nn3)nn2)cc1`, the cytotoxicity was 39.9% (MDA-MB-231; MTT; 3.91 ppm).
`CN(C)c1ccc(-n2cc(COC(=O)[C@]3(C)C=C(C(=O)OC(C)(C)C)C(=O)CC3)nn2)cc1` gave a pERK/ERK ratio of 0.206 (HeLa; quantitative western blot; concentration not given, 20 (unit not given), with: EGF).
With `Cc1cnc(NC(=O)c2cccc([C@@H]3C[C@H]3NC3CCC3)c2)s1` the relative growth was 107% and 80.1% and 88.5% (SET-2; cell growth, CellTiter-Glo; 10 µM, 7 d; reference: vehicle).
For `O=C(Nc1ccc(Sc2ccc3c(/C=C/c4ccccn4)n[nH]c3c2)cc1)Nc1ccc(F)c(F)c1`, the GI50 was 0.38 µM (Ba/F3 TEL-VEGFR2; cell growth, CCK-8).
With `CC1(C)C[C@@H](Nc2cccc(-c3sc(C(=O)O)c(OCC(=O)O)c3Cl)c2)CCN1S(=O)(=O)Cc1cccc(NC(=O)CN2CCC(c3ccc4c(c3)oc(=O)n4C3CCC(=O)NC3=O)CC2)c1` (stereo partly drawn) the fold change was 4.19 and 4.09 and 4.56 and 4.5 and 4.36 and 4.42 (B16-F10; HTRF, refers to: phospho-STAT1 Tyr701; 0.37 µM, with: IFN-γ; reference: DMSO).
`C=Cc1c(C)c2cc3nc(c(CC(=O)OCCOCCOCCOC)c4[nH]c(cc5nc(cc1[nH]2)C(C)=C5CC)c(C)c4C(=O)OCCOCCOCCOC)[C@@H](CCC(=O)OCCOCCOCCOC)[C@@H]3C` — result for “reduction of phototoxicity”: about 8% (OVCAR-5; MTT; 0.1 µM, with: D-mannitol 30 mM; reference: compound alone).
With `CNS(=O)(=O)Nc1nccc(Cc2c(C)c3ccc(Oc4ncccc4F)cc3oc2=O)c1F` the IC50 was over 1 µM (Daoy; cell viability, CellTiter-Glo; 7 days).
Under “log2 fold change”, `Cc1ncsc1-c1ccc(C(C)NC(=O)C2CC(O)CN2C(=O)C(NC(=O)CCCCCCCCCCN2CCCC(Nc3ncc(Cl)c(Nc4ccccc4S(=O)(=O)C(C)C)n3)C2)C(C)(C)C)cc1` (stereo not drawn) is recorded as -2.08 (22Rv1; RNA-seq, refers to: LINC01547 mRNA; concentration not given; reference: DMSO).
The hexosylceramide level of `CCCCCCCCCCCC(=O)N[C@@H](CO)C[C@@H](O)c1cccc(CCCCCC)c1` is reported as 19300 pmol/sample and 14900 pmol/sample and 17700 pmol/sample (HeLa; CERT activity, HPLC-MS/MS lipidomics, refers to: hexosylceramide 24:1; 1 µM, 24 h, not cell-number normalised).
For `CSC(=S)N/N=C(\C)c1ccc(Nc2nnc(-c3ccc(Cl)cc3)c3ccccc23)cc1`, the cell death was 90.2% (MCF7; cell growth or viability, MTT; 1.25 µM).
Under “early apoptotic cells”, `COc1cc(N2CCN(C(=O)C3CCCN3)CC2)ccc1Nc1ncc(Cl)c(Nc2ccccc2P(C)(C)=O)n1` (stereo not drawn) is recorded as 3.52% and 3.23% and 3.64% (Ba/F3 EML4-ALK; flow cytometry; concentration not given, 1 h).
With `COc1cccc(OC)c1-c1cc(C(=O)NC2(C(=O)O)C3CC4CC(C3)CC2C4)nn1-c1ccc(C(=O)N(C)CCCN(C)CCCN(C)C(=O)[C@H](CCCCNC(=O)[C@H](CC(C)C)NC(=O)C2OC2C(=O)O)NC(=O)CN2CCN(CC(=O)[O-])CCN(CC(=O)[O-])CCN(CC(=O)[O-])CC2)cc1C(C)C.[177Lu+3]` (mixture of isomers) the surface-bound fraction was 3.38 ± 0.28% (HT-29; concentration not given, 120 min; reference: added activity).
`CCCCCCCCCCCCCCCC(=O)OCC(CSC[C@H](N)C(=O)N[C@@H](CO)C(=O)N[C@@H](CCCCN)C(=O)N[C@@H](CCCCN)C(=O)N[C@@H](CCCCN)C(=O)N[C@@H](CCCCN)C(=O)NCCCCCC(=O)N[C@@H](CCCCN)C(=O)N[C@@H](CC(C)C)C(=O)N[C@H](C(=O)N[C@@H](Cc1ccccc1)C(=O)N[C@@H](Cc1ccccc1)C(=O)N[C@@H](Cc1ccc2ccccc2c1)C(=O)O)C(C)C)OC(=O)CCCCCCCCCCCCCCC` (stereo partly drawn) gave a mRNA level of 0.0898 FPKM and 0.126 FPKM and 0.204 FPKM (BV-2; RNA-seq, refers to: Arg1; concentration not given).
The SILAC ratio of `O=C(N1CCCC1)n1cc(-c2ccc(-c3ccccc3)cc2)nn1` is reported as 1.18 (mouse T cells; N-terminal labelling proteomics, refers to: ARHGEF2 N-terminal peptides; 0.001 µM, 6 h; reference: DMSO).
`CCCC[C@H]1C(=O)N(C)[C@@H](CCCC)C(=O)N[C@@H](CCCCNC(=S)Nc2ccc(CN3CCN(CC(=O)O)CCN(CC(=O)O)CC3)cc2)C(=O)N[C@H](C(=O)NCC(N)=O)CSCC(=O)N[C@@H](Cc2ccc(O)cc2)C(=O)N(C)[C@@H](C)C(=O)N[C@@H](CC(N)=O)C(=O)N2CCC[C@H]2C(=O)N[C@@H](Cc2c[nH]cn2)C(=O)N[C@@H](CCC(=O)O)C(=O)N2C[C@H](O)C[C@H]2C(=O)N[C@@H](Cc2c[nH]c3ccccc23)C(=O)N[C@@H](CO)C(=O)N[C@@H](Cc2cn(CC(=O)O)c3ccccc23)C(=O)N1C` [fluorine-18 labelled] has a cell-bound activity of 1.12 ± 0.09% (H2444; binding; concentration not given, 30 min, 4 °C; reference: added activity).
The colony survival of `CO[C@@H]1[C@@H](OC(N)=O)[C@@H](O)[C@H](Oc2ccc3c(O)c(NC(=O)c4ccc(O)c(CC=C(C)C)c4)c(=O)oc3c2C)OC1(C)C` is reported as 81.2% (HCT-116 parental; 50 µM; reference: untreated).
The inhibition of `CCCC[C@H](N)C(=O)N[C@H]1CSCc2ccc(cc2)-c2ccc(cc2)CSC[C@@H](C(=O)N[C@H](C(N)=O)[C@@H](C)O)NC(=O)[C@H](CCCCN)NC(=O)[C@H](CCCCN)NC(=O)[C@H](CCCCN)NC(=O)[C@H](Cc2ccc(O)cc2)NC(=O)[C@H](CC(N)=O)NC(=O)[C@H](CC(C)C)NC1=O` is reported as about 50% (U2OS expressing KRAS G12D; KRAS G12D dimerisation; 50 µM).
For `Cc1nc2c(F)cc(-c3nc(Nc4ccc(CNC(=O)CCCCCCC(=O)NO)cc4)ncc3F)cc2n1C(C)C`, the inhibition was 98.9% (OVCAR-5; cell growth or viability, CCK-8; 0.3 µM, 48 h).
For `COC(=O)c1cc(NC2=NC(=O)C(=Cc3ccc(N(C)C)cc3)S2)ccc1OC(C)=O`, the metabolite level was -0.21 fold change (MCF7; GC-MS, refers to: D-Arabinose; 1 µM; reference: DMSO).
For `CC(C)c1ccc(N(C)c2ccc3c(c2)OCC[C@H]3CNc2cnccc2C(=O)O)cc1`, the IC50 was 0.287 µM (GI-1; cell viability, CellTiter-Glo; 7 days).
`C=CC(=O)Oc1ccc(OC)c(-c2c[nH]c3ncc(-c4cncc(C(=O)N(C)C)c4)cc23)c1`: cytotoxicity “not toxic” (non-BCR-ABL leukaemia cells; concentration not given).

Excerpt of the above:
Under “log2 fold change”, `Cc1ncsc1-c1ccc(C(C)NC(=O)C2CC(O)CN2C(=O)C(NC(=O)CCCCCCCCCCN2CCCC(Nc3ncc(Cl)c(Nc4ccccc4S(=O)(=O)C(C)C)n3)C2)C(C)(C)C)cc1` (stereo not drawn) is recorded as -2.08 (22Rv1; RNA-seq, refers to: LINC01547 mRNA; concentration not given; reference: DMSO).
The hexosylceramide level of `CCCCCCCCCCCC(=O)N[C@@H](CO)C[C@@H](O)c1cccc(CCCCCC)c1` is reported as 19300 pmol/sample and 14900 pmol/sample and 17700 pmol/sample (HeLa; CERT activity, HPLC-MS/MS lipidomics, refers to: hexosylceramide 24:1; 1 µM, 24 h, not cell-number normalised).
For `CSC(=S)N/N=C(\C)c1ccc(Nc2nnc(-c3ccc(Cl)cc3)c3ccccc23)cc1`, the cell death was 90.2% (MCF7; cell growth or viability, MTT; 1.25 µM).
Under “early apoptotic cells”, `COc1cc(N2CCN(C(=O)C3CCCN3)CC2)ccc1Nc1ncc(Cl)c(Nc2ccccc2P(C)(C)=O)n1` (stereo not drawn) is recorded as 3.52% and 3.23% and 3.64% (Ba/F3 EML4-ALK; flow cytometry; concentration not given, 1 h).
With `COc1cccc(OC)c1-c1cc(C(=O)NC2(C(=O)O)C3CC4CC(C3)CC2C4)nn1-c1ccc(C(=O)N(C)CCCN(C)CCCN(C)C(=O)[C@H](CCCCNC(=O)[C@H](CC(C)C)NC(=O)C2OC2C(=O)O)NC(=O)CN2CCN(CC(=O)[O-])CCN(CC(=O)[O-])CCN(CC(=O)[O-])CC2)cc1C(C)C.[177Lu+3]` (mixture of isomers) the surface-bound fraction was 3.38 ± 0.28% (HT-29; concentration not given, 120 min; reference: added activity).
